Measurements from different studies.
Target: Bone morphogenetic protein receptor type-1B (BMPR1B, Homo sapiens, UniProt O00238)

`Nc1ncc(-c2cc(-c3cnn(CC(F)(F)F)c3)ncc2F)nc1C(=O)NC1CNCC(F)C1` (centres unmarked) has a remaining activity of 108% (enzyme activity; 1 µM; relative to: DMSO control).
`COc1cc(Nc2nc(C)cc(-c3cnn4nc(OC)ccc34)n2)cc(C(F)(F)F)c1` has a remaining activity of 81% (inhibitor; 1 µM; relative to: control).
`Nc1ncc2c(n1)-c1c([nH]c3ccc(C4=CCOCC4)cc13)CCC2` has a remaining binding of 82% (binding, competition with immobilised ligand; 1 µM).
`C=CC(=O)N1CCCC(n2c(=O)c3ncccc3n(Cc3ccc(Oc4ccccc4)cc3)c2=O)C1` (centres unmarked) has a remaining binding of 77% (cell-free assay, competition with immobilised ligand; 1 µM).
The inhibition of `NC(=O)C[C@H]1CCc2sc3ncnc(O[C@H]4CC[C@H](N5CCOCC5)CC4)c3c21` is reported as 6% (enzyme activity, inhibitor; 10 µM).
`C=CC(=O)N1Cc2nc(-c3cc(-c4cc(Cl)cnc4Cl)c(F)cc3F)n(-c3ccncn3)c2C1` has an inhibition of -4.8% (cell-free assay; 1 µM).
`O=C(Cc1ccc(OCc2ccccc2)cc1)NC1(C(=O)O)CCN(C(=O)c2ccc(-c3cccc(Cl)c3)cc2)CC1`: “activity vs control” 107% (enzyme activity, inhibitor; 10 µM).
`CNC(=O)C[C@H](Cc1ccc(C#N)cc1)NC(=O)c1cc(-c2ccc(CN[C@H](C)c3ccc(C)cc3)o2)ccc1Cl`: “activity vs control” 104% (enzyme activity, inhibitor; 1 µM).
For `Cc1cnc2nc1Nc1cccc(c1)COC/C=C/COCc1cc(ccc1OCCN1CCOCC1)N2`, the remaining binding was 82% (binding; 0.1 µM).
`COc1cc(Nc2nccc(-c3cnn4nc(OC)ccc34)n2)cc(C(F)(F)F)c1` gave a remaining binding of 79% (binding, competition with immobilised ligand; 1 µM).
`Cc1nc2c(F)cc(-c3nc(Nc4ccc(CNC(=O)CCCCCCC(=O)NO)cc4)ncc3F)cc2n1C(C)C` gave an inhibition of 21% (enzyme activity, inhibitor; 1 µM).
For `COc1c(Cl)cccc1Nc1c(-c2ccncc2C#C[C@@]2(C)CCCN2C(=O)/C=C/CN(C)C)[nH]c2c1C(=O)NCC2`, the remaining binding was 81% (cell-free assay, competition with immobilised ligand; 3 µM).
The remaining binding of `CC(C)=CC1OC(C)(C)C2C=C3C(=O)C(Cl)=CC(O)C3C3C(O)C4OC4C(=O)C132` (centres unmarked) is reported as 58% (cell-free assay, competition with immobilised ligand; 10 µM).
`CN1CC[C@@H](COc2cnc(C#N)cc2-c2ccn3nc(NC(=O)C4CC4)cc3c2)C1` has an inhibition of -2% (enzyme activity, inhibitor; 1 µM).
The remaining binding of `CNC(=O)C1CCN(c2cc(C)c(F)cc2NC(=O)c2ccc(-c3cc(O)ccc3C)c(C)c2)CC1` is reported as 64% (binding, competition with immobilised ligand; 1 µM).
`C=CC(=O)N1CCc2ccc(-n3c(=O)ccc4cnc5ccc(-c6cnn(C)c6)cc5c43)cc21` has a remaining binding of 100% (KINOMEscan; 1 µM; relative to: DMSO control).
The remaining binding of `CCN1CCN(Cc2ccc(C(=O)Nc3ccc(C)c(NCc4cnc5[nH]ccc5c4OC)c3)cc2C(F)(F)F)CC1` is reported as 96% (binding, competition with immobilised ligand; 1 µM).
With `CNC1C[S+]2CC[S+]3CC[S+](C1)[Ru-4]321([N]=C=S)[n]2c3ccc(OC)cc3c3c4c(c5cc(F)c[n+]1c5c32)C(=O)NC4=O` (centres unmarked) the remaining binding was 100% (KinomeScan; 0.1 µM; relative to: untreated).
For `NC(=O)[C@@H](O)C[C@H]1CCc2sc3ncnc(O[C@H]4CC[C@H](N5CCOCC5)CC4)c3c21`, the inhibition was -5% (enzyme activity, inhibitor; 10 µM).
With `Cc1ccc(-c2c(/C=C(\C#N)C(=O)NC(C)C)n(CCCO)c3ncnc(N)c23)cc1` the remaining binding was 55% (cell-free assay, competition with immobilised ligand; 1 µM).

A few entries again:
`CNC(=O)C[C@H](Cc1ccc(C#N)cc1)NC(=O)c1cc(-c2ccc(CN[C@H](C)c3ccc(C)cc3)o2)ccc1Cl`: “activity vs control” 104% (enzyme activity, inhibitor; 1 µM).
The remaining binding of `CC(C)=CC1OC(C)(C)C2C=C3C(=O)C(Cl)=CC(O)C3C3C(O)C4OC4C(=O)C132` (centres unmarked) is reported as 58% (cell-free assay, competition with immobilised ligand; 10 µM).
`Nc1ncc(-c2cc(-c3cnn(CC(F)(F)F)c3)ncc2F)nc1C(=O)NC1CNCC(F)C1` (centres unmarked) has a remaining activity of 108% (enzyme activity; 1 µM; relative to: DMSO control).
